Experimental data pooled from the literature.
Protocols differ between the studies behind these lines. ± marks the error that the study gave.
HRH4: Histamine H4 receptor (HRH4, Homo sapiens, UniProt Q9H3N8)
Chain of UniProt Q9H3N8 (whole entry, looked up): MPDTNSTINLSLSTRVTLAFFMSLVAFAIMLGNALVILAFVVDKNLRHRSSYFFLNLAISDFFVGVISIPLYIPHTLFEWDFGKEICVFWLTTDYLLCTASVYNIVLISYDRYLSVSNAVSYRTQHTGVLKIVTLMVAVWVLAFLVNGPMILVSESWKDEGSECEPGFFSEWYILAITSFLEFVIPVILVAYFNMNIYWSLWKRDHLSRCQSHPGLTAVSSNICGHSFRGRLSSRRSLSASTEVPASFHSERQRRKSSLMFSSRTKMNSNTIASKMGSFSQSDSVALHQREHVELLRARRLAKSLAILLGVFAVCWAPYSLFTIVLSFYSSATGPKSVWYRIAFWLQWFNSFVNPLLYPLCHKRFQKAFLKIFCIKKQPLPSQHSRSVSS
TFEB: Transcription factor EB (TFEB, Homo sapiens, UniProt P19484)
Chain of UniProt P19484 (whole entry, looked up): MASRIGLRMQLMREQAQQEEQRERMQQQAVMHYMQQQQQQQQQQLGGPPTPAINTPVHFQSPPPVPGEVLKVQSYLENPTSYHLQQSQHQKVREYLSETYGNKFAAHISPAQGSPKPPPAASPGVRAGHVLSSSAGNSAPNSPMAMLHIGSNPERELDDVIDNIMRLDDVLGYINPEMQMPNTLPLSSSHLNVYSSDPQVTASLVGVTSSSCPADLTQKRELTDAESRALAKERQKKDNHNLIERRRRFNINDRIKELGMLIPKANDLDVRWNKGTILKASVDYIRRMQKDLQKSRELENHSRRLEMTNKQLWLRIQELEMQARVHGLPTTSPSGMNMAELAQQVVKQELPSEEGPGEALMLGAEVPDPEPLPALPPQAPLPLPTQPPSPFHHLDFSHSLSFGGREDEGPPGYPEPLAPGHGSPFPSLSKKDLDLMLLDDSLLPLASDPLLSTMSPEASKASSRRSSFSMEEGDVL
Chain of UniProt P63086 (whole entry, looked up): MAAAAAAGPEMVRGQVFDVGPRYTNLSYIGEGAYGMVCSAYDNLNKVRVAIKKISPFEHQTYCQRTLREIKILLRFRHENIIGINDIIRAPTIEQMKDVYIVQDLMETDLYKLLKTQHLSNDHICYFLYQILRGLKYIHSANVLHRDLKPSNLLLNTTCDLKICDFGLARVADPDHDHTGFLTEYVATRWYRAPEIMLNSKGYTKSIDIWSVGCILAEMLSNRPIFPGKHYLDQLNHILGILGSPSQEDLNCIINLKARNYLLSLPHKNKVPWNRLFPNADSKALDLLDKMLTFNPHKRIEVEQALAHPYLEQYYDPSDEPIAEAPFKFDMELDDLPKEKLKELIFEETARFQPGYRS
Chain of UniProt Q08460 (whole entry, looked up): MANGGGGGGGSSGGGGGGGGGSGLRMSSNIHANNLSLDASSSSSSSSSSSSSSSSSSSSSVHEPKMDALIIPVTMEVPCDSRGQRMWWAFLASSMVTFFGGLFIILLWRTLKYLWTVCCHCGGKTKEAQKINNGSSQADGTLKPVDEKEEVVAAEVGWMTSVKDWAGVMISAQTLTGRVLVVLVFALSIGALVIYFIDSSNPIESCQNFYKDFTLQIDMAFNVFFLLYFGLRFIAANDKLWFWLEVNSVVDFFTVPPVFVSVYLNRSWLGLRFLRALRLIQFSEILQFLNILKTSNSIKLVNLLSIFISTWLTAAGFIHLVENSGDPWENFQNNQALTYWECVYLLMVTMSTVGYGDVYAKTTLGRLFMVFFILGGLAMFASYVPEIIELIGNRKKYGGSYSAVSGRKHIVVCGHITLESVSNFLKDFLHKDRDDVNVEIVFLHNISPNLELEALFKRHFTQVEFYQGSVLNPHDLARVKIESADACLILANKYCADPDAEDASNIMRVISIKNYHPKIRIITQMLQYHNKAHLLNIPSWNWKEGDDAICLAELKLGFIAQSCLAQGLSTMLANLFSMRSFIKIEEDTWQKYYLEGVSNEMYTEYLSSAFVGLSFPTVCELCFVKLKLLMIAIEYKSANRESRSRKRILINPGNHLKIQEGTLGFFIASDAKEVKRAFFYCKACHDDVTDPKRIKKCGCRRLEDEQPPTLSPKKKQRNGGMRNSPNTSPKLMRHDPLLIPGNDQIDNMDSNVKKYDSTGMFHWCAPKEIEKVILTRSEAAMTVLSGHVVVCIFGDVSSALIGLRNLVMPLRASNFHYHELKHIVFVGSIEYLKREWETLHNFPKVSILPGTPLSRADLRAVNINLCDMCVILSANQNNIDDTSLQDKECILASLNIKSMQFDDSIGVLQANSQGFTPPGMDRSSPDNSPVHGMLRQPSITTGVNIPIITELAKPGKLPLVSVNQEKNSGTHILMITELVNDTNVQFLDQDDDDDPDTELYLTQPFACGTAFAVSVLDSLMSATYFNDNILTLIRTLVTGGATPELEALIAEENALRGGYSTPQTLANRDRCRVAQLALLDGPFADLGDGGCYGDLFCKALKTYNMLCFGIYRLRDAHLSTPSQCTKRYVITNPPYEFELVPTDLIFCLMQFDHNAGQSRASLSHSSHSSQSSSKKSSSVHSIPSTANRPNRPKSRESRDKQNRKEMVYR
Chain of UniProt P35372 (whole entry, looked up): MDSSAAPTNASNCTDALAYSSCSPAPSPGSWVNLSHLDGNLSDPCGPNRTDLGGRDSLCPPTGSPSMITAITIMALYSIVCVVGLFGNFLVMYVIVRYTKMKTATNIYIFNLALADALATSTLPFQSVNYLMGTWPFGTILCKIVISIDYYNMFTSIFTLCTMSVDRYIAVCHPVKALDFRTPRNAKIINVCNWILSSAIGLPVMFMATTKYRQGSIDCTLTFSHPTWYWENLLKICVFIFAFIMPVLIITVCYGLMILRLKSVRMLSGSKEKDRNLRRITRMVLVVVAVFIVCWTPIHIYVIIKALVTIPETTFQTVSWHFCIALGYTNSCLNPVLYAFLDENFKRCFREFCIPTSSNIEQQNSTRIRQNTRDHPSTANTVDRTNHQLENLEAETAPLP

`Nc1ncnc2c1ncn2[C@@H]1O[C@H](COP(=O)(O)OP(=O)(O)O)[C@@H](O)[C@H]1O` gave a Ki of 132 ± 28 µM (Mitogen-activated protein kinase 1 (Mapk1, Rattus norvegicus, UniProt P63086); ATP-competitive component; added: substrate Sub-F 15 µM, varied MgATP).
With `CC[N+](CC)(CC)CC` the Kb was 49000 ± 3200 µM (Kcnma1 (Mus musculus, UniProt Q08460); ion current, blocker, inside-out patch, cytosolic; open-channel block, added: Ca2+ 300 µM).
For `N=C(N)NCCCCCCCCCCCCNC(=N)NCCCc1cnc(N)s1`, the Ki was 0.339 µM (HRH4; ligand displacement, radioligand; cell membranes).
`Cc1nc(N)sc1CCCNC(=N)NCCCCCCCCNC(=N)NCCCc1sc(N)nc1C` gave a Kb of 148 µM (HRH4; GTPγS binding, antagonist; cell membranes).
`CC(C)[C@@H](CN1CCC(c2ccsc2)CC1)NC(=O)[C@H]1Cc2ccc(O)cc2CN1` has a Kb of 0.00393 ± 0.00073 µM (Mu-type opioid receptor (OPRM1, Homo sapiens, UniProt P35372); antagonist; added: DAMGO).
`CC(C)[C@H](N)C(=O)O` gave a Kd of 2120 ± 505 µM (Methyl-accepting chemotaxis protein Tlp3, sensing domain (Campylobacter jejuni, UniProt Q0P864); binding, thermal shift; zero heat capacity change at Tm).
The AC50 of `CC[C@@H](C(=O)[C@@H](C)[C@@H](O)[C@H](C)CCc1ccc(C)c(O)c1C(=O)O)[C@H]1O[C@](CC)([C@H]2CC[C@](O)(CC)[C@H](C)O2)C[C@@H]1C` is reported as 6.05 µM (TFEB; nuclear translocation, activator, GFP-TFEB imaging; AML12; 2 h; baseline: Torin 1).
`C=C(C)[C@@H]1CC=C(C)CC1` has a Ki of greater than 50 µM (odorant-binding protein 24 (Monochamus alternatus, UniProt A0A1I9HZN3); competitive fluorescence binding; pH 7.4, added: 1-NPN).
`cholecystokinin octapeptide` gave a remaining activity of 139 ± 4% (PKCθ rat; kinase activity; 10 nM, immunoprecipitated enzyme, added: PKC substrate peptide; baseline: untreated).
For `CC(=O)OC[C@H]1O[C@@H]([S-])[C@H](OC(C)=O)[C@@H](OC(C)=O)[C@@H]1OC(C)=O.CCP(CC)CC.[Au+]`, the AC50 was 2.35 µM (TFEB; nuclear translocation, activator, GFP-TFEB imaging; AML12; 2 h; baseline: Torin 1).

Excerpt of the above:
`Cc1nc(N)sc1CCCNC(=N)NCCCCCCCCNC(=N)NCCCc1sc(N)nc1C` gave a Kb of 148 µM (HRH4; GTPγS binding, antagonist; cell membranes).
